Results collected from several papers.
Numbered parts are unrelated; each lists some results of a single study. “And” joins repeats or separate records; there may be more than shown.
Chain of UniProt O75747 (whole entry, looked up): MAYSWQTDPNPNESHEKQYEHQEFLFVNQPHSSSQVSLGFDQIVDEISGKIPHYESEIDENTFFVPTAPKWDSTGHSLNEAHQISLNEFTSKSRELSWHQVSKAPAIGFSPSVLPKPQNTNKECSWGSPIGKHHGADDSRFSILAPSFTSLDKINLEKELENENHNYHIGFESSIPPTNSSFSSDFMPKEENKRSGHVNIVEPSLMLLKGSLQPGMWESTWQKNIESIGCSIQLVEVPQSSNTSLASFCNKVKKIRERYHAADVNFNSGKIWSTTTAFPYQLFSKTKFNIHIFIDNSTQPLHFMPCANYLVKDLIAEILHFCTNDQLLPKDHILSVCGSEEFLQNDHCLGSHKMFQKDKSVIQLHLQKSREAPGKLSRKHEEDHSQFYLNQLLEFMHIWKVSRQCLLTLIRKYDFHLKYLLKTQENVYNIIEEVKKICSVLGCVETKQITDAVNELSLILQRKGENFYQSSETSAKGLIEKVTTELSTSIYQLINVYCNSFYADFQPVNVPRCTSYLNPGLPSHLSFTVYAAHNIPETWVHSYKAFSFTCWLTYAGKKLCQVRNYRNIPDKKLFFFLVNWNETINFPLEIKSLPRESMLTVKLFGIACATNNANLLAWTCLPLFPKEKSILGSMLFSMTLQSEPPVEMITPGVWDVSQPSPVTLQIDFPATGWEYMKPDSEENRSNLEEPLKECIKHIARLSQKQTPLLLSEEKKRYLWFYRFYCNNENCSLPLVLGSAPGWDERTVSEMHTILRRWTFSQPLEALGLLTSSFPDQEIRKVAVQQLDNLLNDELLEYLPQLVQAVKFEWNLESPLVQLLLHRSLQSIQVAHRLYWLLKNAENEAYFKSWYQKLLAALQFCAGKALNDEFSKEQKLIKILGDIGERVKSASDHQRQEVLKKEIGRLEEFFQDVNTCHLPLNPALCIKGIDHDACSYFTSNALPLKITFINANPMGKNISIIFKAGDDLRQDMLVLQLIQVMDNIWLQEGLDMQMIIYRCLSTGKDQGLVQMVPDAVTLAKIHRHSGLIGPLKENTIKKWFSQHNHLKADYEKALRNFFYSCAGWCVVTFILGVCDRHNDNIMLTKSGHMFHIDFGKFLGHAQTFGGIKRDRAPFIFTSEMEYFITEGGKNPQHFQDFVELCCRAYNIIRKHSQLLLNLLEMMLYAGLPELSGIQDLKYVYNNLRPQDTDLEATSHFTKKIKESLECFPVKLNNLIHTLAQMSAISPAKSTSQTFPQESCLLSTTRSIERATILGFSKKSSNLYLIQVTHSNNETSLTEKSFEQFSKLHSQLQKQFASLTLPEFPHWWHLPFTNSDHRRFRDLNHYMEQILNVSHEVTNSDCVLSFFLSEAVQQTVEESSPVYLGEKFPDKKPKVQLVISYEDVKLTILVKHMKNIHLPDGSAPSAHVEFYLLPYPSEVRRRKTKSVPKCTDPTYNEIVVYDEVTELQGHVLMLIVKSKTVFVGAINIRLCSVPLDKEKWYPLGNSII
Chain of UniProt O76039 (whole entry, looked up): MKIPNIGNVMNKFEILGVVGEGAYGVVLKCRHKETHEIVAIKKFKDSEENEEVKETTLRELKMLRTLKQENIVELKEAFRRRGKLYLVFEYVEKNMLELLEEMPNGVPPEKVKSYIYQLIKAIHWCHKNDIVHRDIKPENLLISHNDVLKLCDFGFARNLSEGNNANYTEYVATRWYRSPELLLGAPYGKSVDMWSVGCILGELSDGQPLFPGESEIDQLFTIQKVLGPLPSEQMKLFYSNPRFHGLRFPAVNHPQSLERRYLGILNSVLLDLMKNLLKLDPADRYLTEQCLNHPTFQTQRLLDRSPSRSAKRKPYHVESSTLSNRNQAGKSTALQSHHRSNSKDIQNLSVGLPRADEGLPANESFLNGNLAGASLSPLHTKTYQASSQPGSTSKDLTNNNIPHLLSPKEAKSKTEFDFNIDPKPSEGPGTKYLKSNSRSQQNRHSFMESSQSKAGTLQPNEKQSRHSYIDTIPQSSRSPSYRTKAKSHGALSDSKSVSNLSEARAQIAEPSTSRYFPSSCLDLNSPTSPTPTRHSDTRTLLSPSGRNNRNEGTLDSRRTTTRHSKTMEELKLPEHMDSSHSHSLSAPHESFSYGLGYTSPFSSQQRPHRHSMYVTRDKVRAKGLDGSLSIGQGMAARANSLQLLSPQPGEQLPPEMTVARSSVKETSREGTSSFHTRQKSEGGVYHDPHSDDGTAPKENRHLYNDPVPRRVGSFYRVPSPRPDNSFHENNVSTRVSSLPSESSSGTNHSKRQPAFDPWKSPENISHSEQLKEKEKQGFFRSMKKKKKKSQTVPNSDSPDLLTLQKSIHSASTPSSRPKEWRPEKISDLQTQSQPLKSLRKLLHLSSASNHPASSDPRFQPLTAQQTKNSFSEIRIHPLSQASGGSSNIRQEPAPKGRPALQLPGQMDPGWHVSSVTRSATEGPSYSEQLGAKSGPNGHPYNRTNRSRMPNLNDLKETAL
Chain of UniProt P42685 (whole entry, looked up): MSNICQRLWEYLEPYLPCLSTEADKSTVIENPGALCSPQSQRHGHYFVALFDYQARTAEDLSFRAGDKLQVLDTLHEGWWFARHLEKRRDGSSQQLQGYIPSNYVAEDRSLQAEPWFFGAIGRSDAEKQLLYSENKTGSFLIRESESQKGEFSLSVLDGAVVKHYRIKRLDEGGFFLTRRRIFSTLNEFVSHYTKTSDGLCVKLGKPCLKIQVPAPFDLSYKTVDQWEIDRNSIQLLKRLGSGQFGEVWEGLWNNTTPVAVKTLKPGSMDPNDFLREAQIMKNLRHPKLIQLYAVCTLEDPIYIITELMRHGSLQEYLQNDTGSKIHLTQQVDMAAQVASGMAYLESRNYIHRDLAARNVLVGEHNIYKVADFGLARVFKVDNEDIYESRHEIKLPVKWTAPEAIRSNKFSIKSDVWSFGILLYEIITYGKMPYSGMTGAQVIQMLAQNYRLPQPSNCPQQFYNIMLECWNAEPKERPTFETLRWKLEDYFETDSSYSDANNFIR
Chain of UniProt P32298 (whole entry, looked up): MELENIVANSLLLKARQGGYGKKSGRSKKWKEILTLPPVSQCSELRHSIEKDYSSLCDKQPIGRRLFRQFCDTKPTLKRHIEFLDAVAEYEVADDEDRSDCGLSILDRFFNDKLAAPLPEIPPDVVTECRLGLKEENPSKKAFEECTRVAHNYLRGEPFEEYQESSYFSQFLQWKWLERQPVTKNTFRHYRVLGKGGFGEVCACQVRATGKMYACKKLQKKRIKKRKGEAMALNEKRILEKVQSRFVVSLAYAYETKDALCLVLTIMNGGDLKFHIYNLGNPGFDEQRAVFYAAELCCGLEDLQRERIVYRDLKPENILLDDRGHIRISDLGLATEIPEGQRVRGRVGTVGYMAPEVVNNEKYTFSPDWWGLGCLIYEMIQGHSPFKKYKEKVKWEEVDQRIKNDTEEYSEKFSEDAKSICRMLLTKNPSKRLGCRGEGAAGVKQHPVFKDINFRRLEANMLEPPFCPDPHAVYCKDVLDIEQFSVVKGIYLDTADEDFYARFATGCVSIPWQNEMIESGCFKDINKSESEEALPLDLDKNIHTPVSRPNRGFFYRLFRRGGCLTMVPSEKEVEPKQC

Series 1
SMILES: COc1cc(-c2nc3ccc(C(=O)NCCCN(C)C)cc3n2C2CCC2)cc(OC)c1OC
Effect on: binding
Technique: competition with immobilised ligand
Tested at: 1 µM
target	remaining binding [%]
PLK4 (Homo sapiens, UniProt O00444)	100
DYRK1A (Homo sapiens, UniProt Q13627)	67
PIK3C2G (Homo sapiens, UniProt O75747)	63
TNNI3K (Homo sapiens, UniProt Q59H18)	92
PIK3CD (Homo sapiens, UniProt O00329)	65
DCLK2 (Homo sapiens, UniProt Q8N568)	83
GRK4 (Homo sapiens, UniProt P32298)	82
ALK (Homo sapiens, UniProt Q9UM73, L1196M)	100
NEK1 (Homo sapiens, UniProt Q96PY6)	90
CDKL5 (Homo sapiens, UniProt O76039)	100
Tyrosine-protein kinase ABL1, phosphorylated (ABL1, Homo sapiens, UniProt P00519)	65
FRK (Homo sapiens, UniProt P42685)	83

Series 2
Compound: C[C@@H]1CN(c2ccc(-c3cc(C(=O)NCCOCCOCCOCCOCCNC(=O)Cn4cc(-c5[nH]cc(C(=O)N[C@@H](CC(N)=O)c6ccc(F)c(Cl)c6)c5-c5ccc(Cl)cc5F)cn4)ccc3F)cc2NC(=O)c2c[nH]c(=O)cc2C(F)(F)F)C[C@H](C)N1C
Effect on: thermal unfolding
Technique: differential scanning fluorimetry
Tested at: 5.5 µM
Direction: higher = more unfolded
DCAF1: DDB1- and CUL4-associated factor 1 (DCAF1, Homo sapiens, UniProt Q9Y4B6)
Chain of UniProt Q9Y4B6 (whole entry, looked up): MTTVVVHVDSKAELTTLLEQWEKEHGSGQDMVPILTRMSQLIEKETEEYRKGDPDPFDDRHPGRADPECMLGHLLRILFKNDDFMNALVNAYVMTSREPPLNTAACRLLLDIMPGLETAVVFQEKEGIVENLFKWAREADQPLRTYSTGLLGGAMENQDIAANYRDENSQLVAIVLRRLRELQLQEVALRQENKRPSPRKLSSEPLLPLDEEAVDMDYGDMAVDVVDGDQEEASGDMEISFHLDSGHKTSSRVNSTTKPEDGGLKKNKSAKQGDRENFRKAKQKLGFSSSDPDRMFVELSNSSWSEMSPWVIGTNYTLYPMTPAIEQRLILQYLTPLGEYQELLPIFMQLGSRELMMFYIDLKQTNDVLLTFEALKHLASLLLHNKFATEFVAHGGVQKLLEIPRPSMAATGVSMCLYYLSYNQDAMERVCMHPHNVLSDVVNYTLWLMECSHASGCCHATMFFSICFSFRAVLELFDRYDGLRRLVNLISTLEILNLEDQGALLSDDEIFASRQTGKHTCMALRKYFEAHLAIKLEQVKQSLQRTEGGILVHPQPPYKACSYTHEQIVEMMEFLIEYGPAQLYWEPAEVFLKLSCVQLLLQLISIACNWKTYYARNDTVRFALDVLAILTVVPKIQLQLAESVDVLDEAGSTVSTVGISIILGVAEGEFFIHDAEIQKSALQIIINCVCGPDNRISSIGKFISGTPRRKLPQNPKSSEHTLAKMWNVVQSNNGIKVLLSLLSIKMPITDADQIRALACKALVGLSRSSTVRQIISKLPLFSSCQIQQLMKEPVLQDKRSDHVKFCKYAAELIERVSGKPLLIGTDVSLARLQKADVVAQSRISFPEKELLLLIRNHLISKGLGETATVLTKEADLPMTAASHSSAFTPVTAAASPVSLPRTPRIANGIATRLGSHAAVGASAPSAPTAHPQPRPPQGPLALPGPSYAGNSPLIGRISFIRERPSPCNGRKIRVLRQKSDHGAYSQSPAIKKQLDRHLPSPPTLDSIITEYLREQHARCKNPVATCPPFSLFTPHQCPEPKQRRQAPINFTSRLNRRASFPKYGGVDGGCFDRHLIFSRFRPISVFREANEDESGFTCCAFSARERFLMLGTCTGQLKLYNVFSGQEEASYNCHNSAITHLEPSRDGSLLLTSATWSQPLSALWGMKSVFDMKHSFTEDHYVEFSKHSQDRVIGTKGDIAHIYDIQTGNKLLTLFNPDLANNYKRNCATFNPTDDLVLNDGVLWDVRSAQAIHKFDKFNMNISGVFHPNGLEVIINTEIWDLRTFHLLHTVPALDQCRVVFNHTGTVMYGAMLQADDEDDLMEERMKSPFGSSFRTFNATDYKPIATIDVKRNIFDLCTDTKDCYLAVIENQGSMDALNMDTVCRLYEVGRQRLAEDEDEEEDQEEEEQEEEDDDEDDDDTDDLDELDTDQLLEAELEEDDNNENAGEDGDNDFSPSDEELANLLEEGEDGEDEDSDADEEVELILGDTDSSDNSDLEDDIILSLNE
WDR5: WD repeat-containing protein 5 (WDR5, Homo sapiens, UniProt P61964)
target	conditions	SYPRO Orange fluorescence
DCAF1	53.01 °C	16600 a.u.
WDR5	72.81 °C	8200 a.u.
WDR5	66.01 °C	7300 a.u.
WDR5	74.61 °C	10400 a.u.
DCAF1	70.81 °C	53600 a.u.
DCAF1	82.01 °C	42500 a.u.
WDR5	85.01 °C	39400 a.u.
WDR5	35 °C	14300 a.u.
DCAF1	73.81 °C	50600 a.u.
WDR5	88.41 °C	43600 a.u.
DCAF1	91.01 °C	34100 a.u.

Other studies, line by line
KRAS G12D: GTPase KRas (KRAS, Homo sapiens, UniProt P01116, G12D)
Compound	tested on	test	test system	conditions	how to read	endpoint	value
Cc1ccc(O)c(C)c1-c1cnc2[nH]c(-c3cnc(N4CCC(CN5CCN(c6ccc(NC7CCC(=O)NC7=O)cc6F)CC5)CC4)nc3)cc2c1C#N (stereo not drawn)	–	–	CD-1 mouse	intravenous, dose not given, 24 h	–	plasma concentration	not detected
Cc1ncsc1-c1ccc(C2(NC(=O)C3CC(O)CN3C(=O)C(NC(=O)c3ccc(COc4c(-c5c(C)c(F)cc6[nH]ncc56)c(C5CC5)cc5c(N6CC7CC6CN7)nc(OC6CCOCC6)nc45)cc3)C(C)C)CC2)cc1 (stereo not drawn)	von Hippel-Lindau disease tumor suppressor, with Elongin B/C (VHL, Homo sapiens, UniProt P40337)	SPR, single-cycle	immobilized VCB complex	binary, geometric mean	–	kon	77600 M⁻¹ s⁻¹
Cc1ccc(O)c(C)c1-c1cnc2[nH]c(-c3cnc(N4CC5(CC(CN6CCN(c7ccc(NC8CCC(=O)NC8=O)cc7F)CC6)C5)C4)nc3)cc2c1C#N (stereo not drawn)	HCC1569	CDK1 Thr14 phosphorylation, in-cell western	–	1.37 nM	lower = stronger inhibition	phospho-CDK1 (Thr14) level	7.6 a.u. and 13.8 a.u.
Cc1ncsc1-c1ccc(C2(NC(=O)C3CC(O)CN3C(=O)C(NC(=O)c3ccc(COc4c(-c5c(C)c(F)cc6[nH]ncc56)c(C5CC5)cc5c(N6CC7CC6CN7)nc(OC6CCOCC6)nc45)cc3)C(C)(C)C)CC2)cc1 (stereo not drawn)	KRAS G12D	degrader, In-Cell ELISA	AsPC-1 (KRAS G12D)	24 h	–	DC50	1080 nM and 318 nM and 925 nM
Cc1ccc(O)c(C)c1-c1cnc2[nH]c(-c3cnc(N4CCC5(CC4)CC(N4CCN(c6ccc(N[C@H]7CCC(=O)N(C)C7=O)cc6F)CC4)CO5)nc3)cc2c1C#N (single isomer, unassigned)	PKMYT1 (Homo sapiens, UniProt Q99640)	kinase activity, inhibitor, ADP-Glo	–	–	–	IC50	8.5 nM
Cc1ncsc1-c1ccc(C(CO)NC(=O)C2CC(O)CN2C(=O)C(NC(=O)c2ccc(COc3c(-c4c(C)c(F)cc5[nH]ncc45)c(C4CC4)cc4c(N5CC6CC5CN6)nc(OC5CCOCC5)nc34)cc2)C(C)C)cc1 (stereo not drawn)	KRAS G12D	degrader, In-Cell ELISA	AsPC-1 (KRAS G12D)	24 h	–	DC50	82.6 nM and 194 nM and 73.4 nM
Cc1ccc(O)c(C)c1-c1cnc2[nH]c(-c3cnc(N4CCC5(CC4)CC(N4CCN(c6ccc(N[C@H]7CCC(=O)NC7=O)cc6F)CC4)CO5)nc3)cc2c1C#N (single isomer, unassigned)	–	–	male Sprague-Dawley rat, plasma	oral, 20 mg/kg	–	AUC(0-t)	29900 ng·h/mL

Excerpt of the above (series 2):
target	conditions	SYPRO Orange fluorescence
WDR5	72.81 °C	8200 a.u.
WDR5	85.01 °C	39400 a.u.
DCAF1	82.01 °C	42500 a.u.
